Experimental data from different studies.
Each line is one published result; not all experiments were run side by side. ± marks the error that the study gave.

SMILES	cell line	observed	method	time	setting	IC50
COc1cc(-c2cn(C)c(=O)c3cnccc23)c(OC)cc1CN(C)C	MOLM16	cell growth or viability	ATP luminescence			50 µM
CCOC(=O)CC[C@@H](C)[C@H]1CC[C@H]2[C@@H]3[C@H](O)C[C@@H]4C[C@H](O)CC[C@]4(C)[C@H]3C[C@H](O)[C@]12C	A2780	cell growth or viability	MTT	96 h		35 µM
CC(C)c1ccc(N(C)c2ccc3c(c2)OCC[C@H]3CNc2cnccc2C(=O)O)cc1	CCF-STTG1	cell growth or viability	ATP luminescence	7 days		≥ 10 µM
NC(=O)c1ccc(-c2ccccc2Cl)c2c3c([nH]c12)CC[C@@H](N)C3	K562 parental	cell proliferation				0.0139 µM
CNS(=O)(=O)Nc1nccc(Cc2c(C)c3ccc(Oc4ncccc4F)cc3oc2=O)c1F	MOLT-16	cell viability		7 days		> 1 µM
CC(=O)Oc1ccccc1C(=O)[O][Pt]([NH2])([NH2])([Cl])([Cl])[O]C(C)=O	2008 ovarian adenocarcinoma	cytotoxicity	MTT	72 h		0.65 ± 0.1 µM
Cc1ccc2c(Cl)cc(Cl)c([O-])c2n1.Cc1ccc2c(Cl)cc(Cl)c([O-])c2n1.Cc1ccnc(-c2cc(C)ccn2)c1.[Co+2]	BEL-7404	cell growth or viability	MTT	48 h		5.94 µM
C[C@@H]1CC[C@@H]([C@@](O)(CNCc2ccc(F)cc2)COCc2ccccc2)[C@H](OCc2ccccc2)C1	A2780	cell growth or viability	MTT	72 h		4.28 µM
CC(C)(C)c1nc(-c2cccc(NS(=O)(=O)c3c(F)cccc3F)c2F)c(-c2ccnc(N)n2)s1.Cc1[nH]c2ccccc2c1CCNCc1ccc(/C=C/C(=O)NO)cc1	A2780	cell growth or viability	crystal violet	48 h		0.0202 µM
CCOc1cncc(-c2ccc(NC(=O)C3(c4ccnc(NS(=O)(=O)C5CC5)n4)CCOCC3)nc2)n1	CCRF-CEM-VCR	cell proliferation	CellTiter-Glo	72 h	lymphoid haematological cancer	0.183 µM
C=CC(=O)N1CCCC(n2c(=O)c3ncccc3n(Cc3ccc(Oc4ccccc4)cc3)c2=O)C1 (stereo not shown)	PCL-12	cell proliferation	MTT	72 h		7 µM
Cc1cc(C)cc(COc2cc3c(cc2OCc2cc(C)cc(C)c2)[C@@H]2C[C@](O)(Cc4cn(Cc5ccc(F)cc5)nn4)C[C@H](C)N2CC3)c1 (single isomer, unassigned)	GES1	cell growth or viability	MTT	48 h		2.49 µM
Cn1ccnc1S/C(=C\C=C(C#N)C#N)c1ccc(Cl)cc1	OVCAR-8	cell growth or viability	ATP luminescence	48 h		2.06 µM
C[C@@H]1CC[C@@H]([C@](O)(CNCc2ccccc2F)COCc2ccccc2)[C@H](OCc2ccccc2)C1	A2780	cell growth or viability	MTT	72 h		3.02 µM
O=C(C[Se]C(=O)c1ccccc1Nc1cccc(C(F)(F)F)c1)Nc1cccc(C(F)(F)F)c1	HaCaT	cell growth or viability	MTS	48 h		21.7 µM
Clc1ccnc2c1ccc1c(Cl)ccnc12.[Co+2].[O-]c1c(Br)cc(Br)c2cccnc12.[O-]c1c(Br)cc(Br)c2cccnc12	BEL-7404	cell growth or viability	MTT	48 h		15.1 µM

Repeated from above:
SMILES	cell line	observed	method	time	setting	IC50
Cc1ccc2c(Cl)cc(Cl)c([O-])c2n1.Cc1ccc2c(Cl)cc(Cl)c([O-])c2n1.Cc1ccnc(-c2cc(C)ccn2)c1.[Co+2]	BEL-7404	cell growth or viability	MTT	48 h		5.94 µM
